Measured values pooled from the literature.
Compare with care: the assays were run in different laboratories. Values joined by “and” are separate records of one study, mostly repeats; a detail may differ. Numbers after ± are the reported error.
PLEC: PLEC (Homo sapiens, UniProt Q15149)
Chain of UniProt Q64663 (whole entry, unmodified, looked up): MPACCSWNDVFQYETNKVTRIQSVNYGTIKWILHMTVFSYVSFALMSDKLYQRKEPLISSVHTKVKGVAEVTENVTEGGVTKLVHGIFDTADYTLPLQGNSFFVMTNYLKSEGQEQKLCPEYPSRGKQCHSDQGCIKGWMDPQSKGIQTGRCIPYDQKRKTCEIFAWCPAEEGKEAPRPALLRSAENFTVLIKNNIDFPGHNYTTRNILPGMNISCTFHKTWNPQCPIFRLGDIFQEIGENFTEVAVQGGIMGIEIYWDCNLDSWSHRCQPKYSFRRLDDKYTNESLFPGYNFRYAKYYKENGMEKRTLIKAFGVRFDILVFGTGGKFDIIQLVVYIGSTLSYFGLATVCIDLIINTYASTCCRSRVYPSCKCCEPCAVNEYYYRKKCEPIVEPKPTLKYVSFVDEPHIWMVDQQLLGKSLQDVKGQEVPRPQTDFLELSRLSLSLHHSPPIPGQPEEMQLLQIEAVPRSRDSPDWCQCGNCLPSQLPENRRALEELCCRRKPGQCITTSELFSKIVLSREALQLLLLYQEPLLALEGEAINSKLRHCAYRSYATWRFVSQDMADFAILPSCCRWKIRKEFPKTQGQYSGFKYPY
Chain of UniProt P62258 (whole entry, looked up): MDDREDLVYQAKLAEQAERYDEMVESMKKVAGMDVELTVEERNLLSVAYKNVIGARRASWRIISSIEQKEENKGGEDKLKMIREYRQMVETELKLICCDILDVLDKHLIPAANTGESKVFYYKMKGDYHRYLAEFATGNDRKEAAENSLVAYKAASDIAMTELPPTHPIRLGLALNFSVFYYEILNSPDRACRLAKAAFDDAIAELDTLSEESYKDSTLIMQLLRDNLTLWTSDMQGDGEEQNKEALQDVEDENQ
Chain of UniProt Q92526 (whole entry, looked up): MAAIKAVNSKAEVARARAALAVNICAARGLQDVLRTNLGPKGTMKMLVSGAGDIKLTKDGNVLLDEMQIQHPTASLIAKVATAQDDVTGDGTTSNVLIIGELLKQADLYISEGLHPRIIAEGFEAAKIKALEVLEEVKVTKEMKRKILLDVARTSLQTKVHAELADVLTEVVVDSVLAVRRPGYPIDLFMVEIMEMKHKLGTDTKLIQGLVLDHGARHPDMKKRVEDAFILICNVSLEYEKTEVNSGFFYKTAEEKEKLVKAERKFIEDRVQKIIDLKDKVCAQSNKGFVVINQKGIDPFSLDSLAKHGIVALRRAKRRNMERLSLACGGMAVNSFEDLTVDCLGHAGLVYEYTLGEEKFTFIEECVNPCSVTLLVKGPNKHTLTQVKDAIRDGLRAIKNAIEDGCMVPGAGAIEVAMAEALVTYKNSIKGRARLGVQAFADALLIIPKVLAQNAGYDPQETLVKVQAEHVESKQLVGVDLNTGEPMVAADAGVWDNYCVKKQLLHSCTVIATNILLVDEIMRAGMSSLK
Chain of UniProt P40227 (whole entry, looked up): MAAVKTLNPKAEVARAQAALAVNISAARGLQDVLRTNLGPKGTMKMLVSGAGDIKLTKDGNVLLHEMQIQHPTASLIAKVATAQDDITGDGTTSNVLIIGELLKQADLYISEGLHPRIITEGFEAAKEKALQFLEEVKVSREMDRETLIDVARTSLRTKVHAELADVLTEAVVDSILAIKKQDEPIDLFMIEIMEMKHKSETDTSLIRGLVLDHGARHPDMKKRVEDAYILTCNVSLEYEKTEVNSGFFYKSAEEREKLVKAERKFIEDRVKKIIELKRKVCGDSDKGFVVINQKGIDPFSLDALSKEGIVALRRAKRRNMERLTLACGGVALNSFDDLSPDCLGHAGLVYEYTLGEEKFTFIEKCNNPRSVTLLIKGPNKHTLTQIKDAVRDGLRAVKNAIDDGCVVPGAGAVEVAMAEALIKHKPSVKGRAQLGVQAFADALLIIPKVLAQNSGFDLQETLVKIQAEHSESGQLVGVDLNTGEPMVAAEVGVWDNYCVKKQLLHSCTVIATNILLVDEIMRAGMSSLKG
Chain of UniProt P62937 (whole entry, looked up): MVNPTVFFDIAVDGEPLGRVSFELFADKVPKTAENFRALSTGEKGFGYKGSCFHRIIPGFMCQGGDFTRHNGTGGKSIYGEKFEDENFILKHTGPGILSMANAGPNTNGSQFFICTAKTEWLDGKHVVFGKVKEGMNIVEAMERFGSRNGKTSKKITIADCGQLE
Chain of UniProt Q92620 (whole entry, looked up): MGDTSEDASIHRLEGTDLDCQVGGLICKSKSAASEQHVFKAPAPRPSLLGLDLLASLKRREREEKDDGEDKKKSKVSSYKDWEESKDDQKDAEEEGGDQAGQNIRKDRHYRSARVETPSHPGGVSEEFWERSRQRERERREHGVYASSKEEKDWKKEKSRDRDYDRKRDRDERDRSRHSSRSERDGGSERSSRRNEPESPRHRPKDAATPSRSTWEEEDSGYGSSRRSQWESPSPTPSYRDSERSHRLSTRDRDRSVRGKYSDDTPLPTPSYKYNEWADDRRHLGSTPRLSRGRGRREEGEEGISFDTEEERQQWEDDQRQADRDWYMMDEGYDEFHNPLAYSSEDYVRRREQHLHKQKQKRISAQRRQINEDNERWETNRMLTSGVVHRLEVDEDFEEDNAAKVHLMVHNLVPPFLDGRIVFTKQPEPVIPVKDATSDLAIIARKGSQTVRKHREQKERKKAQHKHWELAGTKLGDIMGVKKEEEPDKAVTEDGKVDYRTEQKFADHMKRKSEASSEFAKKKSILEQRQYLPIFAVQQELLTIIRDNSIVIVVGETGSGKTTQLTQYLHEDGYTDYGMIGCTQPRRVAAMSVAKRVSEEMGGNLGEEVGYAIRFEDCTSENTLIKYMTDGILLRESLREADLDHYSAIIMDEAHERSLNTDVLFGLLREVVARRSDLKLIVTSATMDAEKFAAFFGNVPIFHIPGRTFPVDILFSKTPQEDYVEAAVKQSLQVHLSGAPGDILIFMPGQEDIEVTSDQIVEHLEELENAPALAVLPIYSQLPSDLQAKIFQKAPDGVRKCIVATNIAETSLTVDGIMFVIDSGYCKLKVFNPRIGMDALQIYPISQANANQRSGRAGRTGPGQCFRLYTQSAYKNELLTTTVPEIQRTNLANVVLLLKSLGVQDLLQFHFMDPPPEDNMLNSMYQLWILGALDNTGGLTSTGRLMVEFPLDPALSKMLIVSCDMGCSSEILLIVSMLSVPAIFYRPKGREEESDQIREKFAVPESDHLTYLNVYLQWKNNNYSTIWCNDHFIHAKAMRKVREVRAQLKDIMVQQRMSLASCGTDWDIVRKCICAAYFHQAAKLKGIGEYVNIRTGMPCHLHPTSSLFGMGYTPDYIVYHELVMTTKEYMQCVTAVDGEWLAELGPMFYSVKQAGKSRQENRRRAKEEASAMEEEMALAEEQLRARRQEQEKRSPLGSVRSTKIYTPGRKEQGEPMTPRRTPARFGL
Chain of UniProt P51153 (whole entry, looked up): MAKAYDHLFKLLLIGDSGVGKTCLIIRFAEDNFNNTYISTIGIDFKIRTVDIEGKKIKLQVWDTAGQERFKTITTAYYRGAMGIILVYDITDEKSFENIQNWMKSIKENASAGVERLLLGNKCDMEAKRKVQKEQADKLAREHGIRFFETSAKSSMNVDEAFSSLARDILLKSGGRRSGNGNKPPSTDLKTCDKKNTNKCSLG
Chain of UniProt P84090 (whole entry, unmodified, looked up): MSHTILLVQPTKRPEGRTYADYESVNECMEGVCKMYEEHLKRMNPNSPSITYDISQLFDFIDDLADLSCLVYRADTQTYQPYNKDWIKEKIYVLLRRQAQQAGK
Chain of UniProt O60832 (whole entry, looked up): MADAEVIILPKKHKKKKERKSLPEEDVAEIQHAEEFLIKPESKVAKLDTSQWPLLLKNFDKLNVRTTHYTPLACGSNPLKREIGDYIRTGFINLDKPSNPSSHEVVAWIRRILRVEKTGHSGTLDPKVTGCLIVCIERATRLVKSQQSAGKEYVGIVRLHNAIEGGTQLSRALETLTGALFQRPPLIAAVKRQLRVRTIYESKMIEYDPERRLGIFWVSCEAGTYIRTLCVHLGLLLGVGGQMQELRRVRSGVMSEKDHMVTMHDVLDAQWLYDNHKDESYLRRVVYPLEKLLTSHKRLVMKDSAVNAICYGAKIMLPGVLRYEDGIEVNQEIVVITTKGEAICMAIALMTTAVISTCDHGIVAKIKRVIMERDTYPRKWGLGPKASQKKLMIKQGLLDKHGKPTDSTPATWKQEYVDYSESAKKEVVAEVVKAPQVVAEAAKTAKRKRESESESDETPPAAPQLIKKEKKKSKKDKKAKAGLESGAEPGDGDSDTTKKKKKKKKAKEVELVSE
Chain of UniProt Q9NY12 (whole entry, looked up): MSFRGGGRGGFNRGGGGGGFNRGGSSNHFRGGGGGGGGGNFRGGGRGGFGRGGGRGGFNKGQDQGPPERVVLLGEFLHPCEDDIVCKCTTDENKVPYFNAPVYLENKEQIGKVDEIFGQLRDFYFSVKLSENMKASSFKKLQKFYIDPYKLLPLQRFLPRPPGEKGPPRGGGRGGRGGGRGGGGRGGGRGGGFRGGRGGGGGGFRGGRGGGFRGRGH
Chain of UniProt P31946 (whole entry, looked up): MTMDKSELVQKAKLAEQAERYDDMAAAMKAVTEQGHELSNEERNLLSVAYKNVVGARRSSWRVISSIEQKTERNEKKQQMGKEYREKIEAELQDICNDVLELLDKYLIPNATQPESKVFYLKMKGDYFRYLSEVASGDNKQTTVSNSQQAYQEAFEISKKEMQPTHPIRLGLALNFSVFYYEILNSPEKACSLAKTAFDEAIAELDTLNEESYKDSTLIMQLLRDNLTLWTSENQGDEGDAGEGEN
Chain of UniProt P12236 (whole entry, looked up): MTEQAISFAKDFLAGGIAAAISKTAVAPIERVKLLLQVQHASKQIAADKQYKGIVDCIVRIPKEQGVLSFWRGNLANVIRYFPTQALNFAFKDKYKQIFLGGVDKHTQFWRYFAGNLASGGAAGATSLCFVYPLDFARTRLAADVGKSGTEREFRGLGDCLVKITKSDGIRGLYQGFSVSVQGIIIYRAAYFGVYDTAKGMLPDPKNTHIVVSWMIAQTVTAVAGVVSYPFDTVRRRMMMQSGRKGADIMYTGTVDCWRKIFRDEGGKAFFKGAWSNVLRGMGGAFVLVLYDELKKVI

Substance = NUP93 (Homo sapiens, UniProt Q8N1F7); tested on = NUP205 (Homo sapiens, UniProt Q92621); assay = cross-linking MS; test system = cells; conditions = with: BDP-NHP; measurement = cross-linked residues; result = K106 to K1548
Substance = SLC25A5 (Homo sapiens, UniProt P05141); tested on = SLC25A6 (Homo sapiens, UniProt P12236); assay = cross-linking MS; test system = purified complex; conditions = with: DSSO; measurement = cross-linked residues; result = K147 to K147
Substance = KLHL31 (Homo sapiens, UniProt Q9H511); tested on = KIAA1210 (Homo sapiens, UniProt Q9ULL0); assay = cross-linking MS; conditions = with: DSSO; measurement = cross-linked residues; result = K10 to K1667
Substance = 11-deoxycorticosterone; tested on = CYP11B2 (human); assay = substrate binding, stopped-flow global kinetic fitting; test system = purified enzyme; conditions = 3-state induced fit model, with: equimolar adrenodoxin; measurement = rate constant k-1; result = 47.2 ± 1.85 s⁻¹
Substance = GAPDH (Homo sapiens, UniProt P04406); tested on = DHX38 (Homo sapiens, UniProt Q92620); assay = cross-linking MS; test system = cells; conditions = with: iqPIR; measurement = cross-linked residues; result = K219 to K522
Substance = SERPINB1 (Homo sapiens, UniProt P30740); tested on = SNCA (Homo sapiens, UniProt P37840); assay = cross-linking MS; conditions = with: DSSO or DMTMM; measurement = cross-linked residues; result = D312 to K10
Substance = DARS1 (Homo sapiens, UniProt P14868); tested on = AIMP2 (Homo sapiens, UniProt Q13155); assay = cross-linking MS; test system = cells; conditions = with: BDP-NHP; measurement = cross-linked residues; result = K330 to K159
Substance = PRTARHAPAVRKFSPDLKLLKDVKISVSFTE (DGCR8(96-126), SUMO-tagged); tested on = Enhancer of rudimentary homolog (Homo sapiens, UniProt P84090, F60A/L64A); assay = ITC; test system = peptide; conditions = 293 K, ERH F60A/L64A mutant, with: DGCR8 peptide; measurement = Kd; result = > 100 µM
Substance = YWHAB (Homo sapiens, UniProt P31946); tested on = YWHAE (Homo sapiens, UniProt P62258); assay = cross-linking MS; test system = cells; conditions = with: iqPIR; measurement = cross-linked residues; result = K70 to K50
Substance = caspofungin; test system = adult ICU patients, mITT, serum; conditions = dose not given, Baseline; measurement = aspartate aminotransferase; result = 28.1 U/L
Substance = TCP1 (Homo sapiens, UniProt P17987); tested on = CCT2 (Homo sapiens, UniProt P78371); assay = cross-linking MS; test system = cells; conditions = with: BDP-NHP; measurement = cross-linked residues; result = K126 to K46
Substance = CTTN (Homo sapiens, UniProt Q14247); tested on = HSP90AB4P (Homo sapiens, UniProt Q58FF6); assay = cross-linking MS; conditions = with: DSSO or DMTMM; measurement = cross-linked residues; result = D177 to K194
Substance = LGALS1 (Homo sapiens, UniProt P09382); tested on = RAB13 (Homo sapiens, UniProt P51153); assay = cross-linking MS; test system = cells; conditions = with: iqPIR; measurement = cross-linked residues; result = K64 to K107
Substance = CLTC (Homo sapiens, UniProt Q00610); tested on = PLEC; assay = cross-linking MS; test system = cells; conditions = with: BDP-NHP; measurement = cross-linked residues; result = K245 to K1774
Substance = Polymyxin B; assay = untargeted LC-MS metabolomics, refers to: 1-methylhistamine; test system = Sprague-Dawley rat, right cerebral cortex; conditions = intracerebroventricular, 0.75 mg/kg, 1 h; scale = relative to: NaCl control; measurement = log2 fold change; result = -3.6
Substance = HNRNPK (Homo sapiens, UniProt P61978); tested on = CFAP251 (Homo sapiens, UniProt Q8TBY9); assay = cross-linking MS; test system = cells; conditions = with: BDP-NHP; measurement = cross-linked residues; result = K52 to K1064
Substance = ALB (Homo sapiens, UniProt P02768); tested on = CCDC166 (Homo sapiens, UniProt P0CW27); assay = cross-linking MS; conditions = with: DSSO; measurement = cross-linked residues; result = K426 to K89
Substance = KDM5A (Homo sapiens, UniProt P29375); tested on = MTNAP1 (Homo sapiens, UniProt Q9BSJ5); assay = cross-linking MS; conditions = with: DSSO; measurement = cross-linked residues; result = K960 to K110
Substance = CD109 (Homo sapiens, UniProt Q6YHK3); tested on = PRPF31 (Homo sapiens, UniProt Q8WWY3); assay = cross-linking MS; test system = cells; conditions = with: BDP-NHP; measurement = cross-linked residues; result = K560 to K471
Substance = Peginesatide; tested on = UT7/EPO; assay = RT-qPCR, refers to: CCL2; conditions = concentration not given, 90 min, normalized to HPRT1; scale = relative to: vehicle; measurement = mRNA level; result = 9.8 fold
Substance = FGA (Homo sapiens, UniProt P02671); tested on = MAP4 (Homo sapiens, UniProt P27816); assay = cross-linking MS; conditions = with: DSSO; measurement = cross-linked residues; result = K243 to K852
Substance = CLTB (Homo sapiens, UniProt P09497); tested on = CLTC (Homo sapiens, UniProt Q00610); assay = cross-linking MS; test system = cells; conditions = with: iqPIR; measurement = cross-linked residues; result = K133 to K1441
Substance = colistin; tested on = Pseudomonas aeruginosa; assay = broth microdilution; test system = clinical isolate RKI-No_253/15; measurement = MIC; result = 1 µg/mL
Substance = PDHX (Homo sapiens, UniProt O00330); tested on = DLAT (Homo sapiens, UniProt P10515); assay = cross-linking MS; test system = cells; conditions = with: BDP-NHP; measurement = cross-linked residues; result = K488 to K473
Substance = KYKLADYRYGREEMLALFLK (GIGYF2(35-54) peptide; sequence looked up); tested on = EIF4E2 (Homo sapiens, UniProt O60573); assay = ITC; test system = peptide; conditions = pH 7.0, 20 °C, GB1-stabilized peptide titration; measurement = -TΔS; result = 13.5 kcal/mol
Substance = FNA / CGLSGLGVA-NH2 ([18F]FNA-labelled, C-amide); assay = gamma counting; test system = peptide, glioblastoma mice, skull bone; conditions = 60 min, with: CooP blocking, 500-fold excess; measurement = tissue uptake; result = 0.35 %ID/g
Substance = SLC4A1 (Homo sapiens, UniProt P02730); tested on = PGM2 (Homo sapiens, UniProt Q96G03); assay = cross-linking MS; conditions = with: DSSO or DMTMM; measurement = cross-linked residues; result = D25 to K91
Substance = FGG (Homo sapiens, UniProt P02679); tested on = RANBP3L (Homo sapiens, UniProt Q86VV4); assay = cross-linking MS; conditions = with: DSSO; measurement = cross-linked residues; result = K231 to K311
Substance = RFC1 (Homo sapiens, UniProt P35251); tested on = Histone H4 (Homo sapiens, UniProt P62805); assay = cross-linking MS; conditions = with: DSSO; measurement = cross-linked residues; result = K845 to K78
Substance = Hemoglobin subunit alpha (Homo sapiens, UniProt P69905); tested on = KRT76 (Homo sapiens, UniProt Q01546); assay = cross-linking MS; conditions = with: DSSO or DMTMM; measurement = cross-linked residues; result = D48 to K398
Substance = YWHAE (Homo sapiens, UniProt P62258); tested on = PPIA (Homo sapiens, UniProt P62937); assay = cross-linking MS; test system = cells; conditions = with: iqPIR; measurement = cross-linked residues; result = K73 to K76
Substance = human ME2 K74H; assay = enzyme activity, activator, NADH absorbance; test system = recombinant enzyme; conditions = range over 0 to 5 mM, pH 7.4; scale = relative to: wild type; measurement = activation fold; result = 1.7
Substance = TCP1 (Homo sapiens, UniProt P17987); tested on = CCT4 (Homo sapiens, UniProt P50991); assay = cross-linking MS; conditions = with: DSSO; measurement = cross-linked residues; result = K126 to K55
Substance = SMC2 (Homo sapiens, UniProt O95347); tested on = SMC4 (Homo sapiens, UniProt Q9NTJ3); assay = cross-linking MS; test system = cells; conditions = with: BDP-NHP; measurement = cross-linked residues; result = K677 to K598
Substance = DKC1 (Homo sapiens, UniProt O60832); tested on = GAR1 (Homo sapiens, UniProt Q9NY12); assay = cross-linking MS; test system = cells; conditions = with: iqPIR; measurement = cross-linked residues; result = K191 to K112
Substance = THOC2 (Homo sapiens, UniProt Q8NI27); tested on = SPIN1 (Homo sapiens, UniProt Q9Y657); assay = cross-linking MS; conditions = with: DSSO; measurement = cross-linked residues; result = K405 to K104
Substance = BzATP; tested on = P2X purinoceptor 7 (P2rx7, Rattus norvegicus, UniProt Q64663, R125A); assay = ion current, agonist, two-electrode voltage clamp; test system = Xenopus oocytes; conditions = 11.11 µM; measurement = normalized current; result = 0.742 and 0.693 and 0.707
Substance = RSL1D1 (Homo sapiens, UniProt O76021); tested on = PLEC; assay = cross-linking MS; test system = cells; conditions = with: iqPIR; measurement = cross-linked residues; result = K395 to K2189
Substance = FGB (Homo sapiens, UniProt P02675); tested on = PCSK5 (Homo sapiens, UniProt Q92824); assay = cross-linking MS; conditions = with: DSSO; measurement = cross-linked residues; result = K77 to K587
Substance = human ME2 T60S; assay = enzyme activity, activator, NADH absorbance; test system = recombinant enzyme; conditions = range over 0 to 5 mM, pH 7.4; scale = relative to: wild type; measurement = activation fold; result = 0.9
Substance = CCT6A (Homo sapiens, UniProt P40227); tested on = CCT6B (Homo sapiens, UniProt Q92526); assay = cross-linking MS; test system = cells; conditions = with: iqPIR; measurement = cross-linked residues; result = K251 to K295
Substance = MAGEC1 (Homo sapiens, UniProt O60732); tested on = FGB (Homo sapiens, UniProt P02675); assay = cross-linking MS; conditions = with: DSSO; measurement = cross-linked residues; result = K926 to K374

For quick reference, copied from above:
Substance = FNA / CGLSGLGVA-NH2 ([18F]FNA-labelled, C-amide); assay = gamma counting; test system = peptide, glioblastoma mice, skull bone; conditions = 60 min, with: CooP blocking, 500-fold excess; measurement = tissue uptake; result = 0.35 %ID/g
Substance = SLC4A1 (Homo sapiens, UniProt P02730); tested on = PGM2 (Homo sapiens, UniProt Q96G03); assay = cross-linking MS; conditions = with: DSSO or DMTMM; measurement = cross-linked residues; result = D25 to K91
Substance = FGG (Homo sapiens, UniProt P02679); tested on = RANBP3L (Homo sapiens, UniProt Q86VV4); assay = cross-linking MS; conditions = with: DSSO; measurement = cross-linked residues; result = K231 to K311
